{"data": "Published values collected from several papers", "note": "Compare with care: the assays were run in different laboratories. ± marks the error that the study gave."}
{"Structure (SMILES)": "CC[C@H](C)[C@H](NC(=O)[C@H](CCCCN)NC(=O)[C@H](Cc1ccccc1)NC(=O)[C@H]1CCC[C@@H]1NC(=O)[C@@H](N)CCCCN)C(=O)N[C@@H](C)CC(=O)N[C@@H](CCCCN)C(=O)N[C@@H](CCCCN)C(=O)N[C@H]1CCC[C@@H]1C(=O)N[C@H](C(=O)N[C@@H](CCCCN)C(=O)N[C@@H](CCCNC(=N)N)C(=O)N[C@H](CC(N)=O)Cc1ccccc1)C(C)C", "test": "RP-HPLC C18", "conditions": "hydrophobicity", "measurement": "retention time", "result": "13.33 ± 0.04 min"}
{"Structure (SMILES)": "CN(C)C(CNC(=O)Nc1cc(C(F)(F)F)ccc1N1CCOCC1)c1ccncc1 (stereo not drawn)", "system": "mouse, serum", "conditions": "intraperitoneal, 240 mg/kg single dose", "measurement": "serum GGT", "result": "< 3 U/L"}
{"Structure (SMILES)": "CC[C@H](C)[C@H](NC(=O)[C@H](C)NC(=O)CNC(=O)[C@@H](N)CCSC)C(=O)N[C@@H](C)C(=O)N[C@@H](CCCCN)C(=O)N[C@@H](CC(C)C)C(=O)N[C@H](C(=O)N[C@@H](C)C(=O)N[C@@H](CCCCN)C(=O)N[C@@H](Cc1ccccc1)C(=O)NCC(=O)N[C@@H](Cc1c[nH]c2ccccc12)C(=O)N1CCC[C@H]1C(=O)N[C@@H](Cc1ccccc1)C(=O)N[C@H](C(=O)N[C@@H](CCCCN)C(=O)N[C@@H](CCCCN)C(=O)N[C@@H](Cc1ccccc1)C(=O)N[C@@H](Cc1ccc(O)cc1)C(=O)N[C@@H](CCCCN)C(=O)N[C@@H](CCC(N)=O)C(=O)N[C@H](C(=O)N[C@@H](CCSC)C(=O)N[C@@H](CCC(N)=O)C(=O)N[C@@H](CCCNC(=N)N)C(=O)N[C@H](C(=O)NCC(=O)N[C@@H](CCC(N)=O)C(=O)NCC(=O)N[C@@H](Cc1c[nH]c2ccccc12)C(=O)N[C@H](C(=O)N[C@H](C(=O)N[C@@H](CC(=O)O)C(=O)N[C@@H](CCC(N)=O)C(=O)N[C@H](C(=O)N[C@@H](CCC(=O)O)C(=O)N[C@@H](CCCCN)C(=O)N[C@@H](Cc1c[nH]c2ccccc12)C(=O)N[C@@H](CC(C)C)C(=O)N[C@@H](CCCCN)C(=O)N[C@@H](CCCNC(=N)N)C(=O)N[C@@H](Cc1c[nH]cn1)C(=O)O)[C@@H](C)CC)[C@@H](C)CC)[C@@H](C)O)[C@@H](C)CC)[C@@H](C)CC)[C@@H](C)CC)C(C)C", "test": "thermal unfolding, far-UV CD", "system": "10 mM sodium phosphate", "conditions": "5-20 µM, pH 7.2", "measurement": "Tm", "result": "49.1 ± 0.4 °C"}
{"Structure (SMILES)": "CC[C@H](C)C(=O)N1CCC(NC(=O)Nc2ccc(OC(F)(F)F)c(F)c2)CC1", "system": "healthy volunteers", "conditions": "oral, 8 mg single dose, 14 (unit not given)", "measurement": "subjects with any TEAE", "result": "33.3%"}
{"Structure (SMILES)": "COCC(=O)NCCSc1c(-c2ccc(Br)cc2)[nH]c2ccccc12", "system": "rat", "measurement": "t1/2", "result": "48.6 min"}
{"Structure (SMILES)": "CC(C)[C@@H]1NC(=O)[C@H](Cc2ccccc2)NC(=O)[C@H](Cc2ccc(O)cc2)NC(=O)CCSSC[C@@H](C(=O)N2CCC[C@H]2C(=O)N[C@H](CCCNC(=N)N)C(=O)NCC(N)=O)NC(=O)[C@H](CCC(N)=O)NC1=O", "system": "Wistar rat, blood", "conditions": "intravenous, 10 µg/kg single dose, 72 h", "measurement": "glucose", "result": "221 ± 19.7 mg/dL"}
{"Structure (SMILES)": "O=C(CCCCCCC(=O)Nc1ccc(N=Nc2ccccc2)cc1)NO", "test": "1H NMR", "system": "DMSO", "conditions": "irradiation 365 nm", "measurement": "cis isomer content", "result": "95%"}
{"Structure (SMILES)": "O=C(O)CCC(NP(=O)(O)OCCC[C@@H](NC(=O)CCC(NC(=O)CCCCCNC(=O)c1ccc([18F])cc1)C(=O)O)C(=O)O)C(=O)O (stereo partly drawn)", "test": "radioactivity", "system": "mouse, CWR22Rv1 xenograft", "conditions": "1 h", "scale": "relative to: tumour over blood", "measurement": "tumour to blood ratio", "result": 20}
{"Structure (SMILES)": "CCCCC[C@@H]1OC(=O)[C@@H](C)N(C)C(=O)[C@H](CCCCC)OC(=O)[C@@H](C)N(C)C(=O)[C@H](CCCCC)OC(=O)[C@@H](C)N(C)C(=O)[C@H](CCCCC)OC(=O)[C@@H](C)N(C)C1=O", "system": "Caco-2", "conditions": "10 µM, 2 h, pH 7.4", "measurement": "Papp B→A", "result": "1.5 ×10⁻⁶ cm/s"}
{"Structure (SMILES)": "CCCCCCCCCCCCC(=O)O.O=C1CCCC2C3CCCN4CCCC(CN12)C34 (stereo not drawn)", "test": "electrical conductivity", "system": "water", "conditions": "298.15 K", "measurement": "standard entropy of aggregation", "result": "108 J/(mol·K)"}
{"Structure (SMILES)": "C[C@@H](O)[C@H](NC(=O)[C@H](CCCCN)NC(=O)[C@H](Cc1c[nH]c2ccccc12)NC(=O)CN)C(=O)N[C@@H](CCCNC(=N)N)C(=O)NC(C)(C)C(=O)N[C@@H](CCCNC(=N)N)C(=O)NC(C)(C)C(=O)N[C@H](C(=O)N[C@@H](CO)C(=O)N[C@@H](Cc1c[nH]cn1)C(=O)N[C@@H](Cc1ccc(O)cc1)C(=O)NCC(=O)O)[C@@H](C)O", "system": "C57BL/6 mouse, blood", "conditions": "intravenous, 50 mg/kg, 10 h", "measurement": "granulocytes", "result": "7 to 13%"}
{"Structure (SMILES)": "CC(C)[C@H](NC(=O)CNC(=O)[C@H](CCC(N)=O)NC(=O)[C@H](C)N)C(=O)O", "test": "mild intensity", "system": "human", "conditions": "10 mg/kg, 3 days, thrice daily dosing", "measurement": "subjects with adverse events", "result": "50%"}
{"Structure (SMILES)": "CSCC[C@@H]1NC(=O)[C@@H]2CSSC[C@H](NC(=O)[C@H](CO)NC(=O)[C@H](C)N)C(=O)N[C@@H](CCCNC(=N)N)C(=O)N[C@@H]([C@@H](C)O)C(=O)N3CCC[C@H]3C(=O)N[C@@H](CCCCN)C(=O)N[C@@H](CC(=O)O)C(=O)N[C@H]3CSSC[C@H](NC(=O)[C@H](CCCCN)NC(=O)[C@H](CCCNC(=N)N)NC(=O)[C@H](CC(N)=O)NC1=O)C(=O)N[C@@H](CCCCN)C(=O)N[C@H]1CSSC[C@H](NC(=O)[C@@H]4CCCN4C(=O)[C@H](CC(=O)O)NC(=O)[C@H](C)NC3=O)C(=O)N[C@@H](C)C(=O)N[C@@H](CCCCN)C(=O)N[C@@H](CCC(=O)O)C(=O)N[C@@H]([C@@H](C)O)C(=O)NCC(=O)N[C@@H](CSSC[C@@H](C(N)=O)NC(=O)[C@H](CCCNC(=N)N)NC(=O)[C@H](CC(N)=O)NC1=O)C(=O)N1CCC[C@H]1C(=O)N[C@@H](Cc1ccc(O)cc1)C(=O)NCC(=O)N[C@@H](CCCCN)C(=O)N2", "system": "DA rat pristane-induced arthritis, serum", "conditions": "subcutaneous, 0.1 mg/kg once weekly, 21 days", "measurement": "Cholesterol", "result": "76 mg/dL"}
{"Structure (SMILES)": "C=Cc1cc(O)cc2nc(-c3ccc(O)c([76Br])c3)oc12", "system": "female C57BL/6 mouse, ovaries", "conditions": "3 h, high dose, together with: estradiol 20 µg blocking", "measurement": "tissue uptake", "result": "0.1 ± 0.04 %ID/g"}
{"Structure (SMILES)": "COc1cc(C(=O)NCCOCCOCCOCCNC(=O)c2ccc([18F])nc2)ccc1NC(=O)C1NC(CC(C)(C)C)C(C#N)(c2ccc(Cl)cc2F)C1c1cccc(Cl)c1F (stereo not drawn)", "system": "athymic male mice, SJSA-1 xenograft", "conditions": "2 h", "scale": "relative to: tumour over liver", "measurement": "tumour-to-tissue ratio", "result": "0.73 ± 0.21"}
{"Structure (SMILES)": "CN[C@](C)(C[18F])C(=O)O", "system": "SCID mouse U87 xenograft", "conditions": "120 min post injection", "measurement": "tumour uptake", "result": "2.9 ± 0.7 %ID/g"}
{"Structure (SMILES)": "COc1cc2ccnc(Cc3ccc(O[11CH3])c(OC)c3)c2cc1OC", "system": "Sprague-Dawley rat", "conditions": "intravenous, 30 min", "scale": "relative to: 5 min value", "measurement": "liver uptake", "result": "48%"}
{"Structure (SMILES)": "CCOP(=O)(OCC)OCCCCOC(=O)C(C)c1ccc(CC(C)C)cc1 (stereo not drawn)", "system": "Fischer 344 rats, male", "conditions": "oral gavage, 1215 mg/kg daily, 7 days", "measurement": "rats with stomach ulcers", "result": "14.3%"}
{"Structure (SMILES)": "CSCC[C@H](NC(=O)CNC(=O)[C@H](CC(=O)O)NC(=O)[C@@H](NC(=O)[C@@H](NC(=O)[C@@H](NC(=O)CNC(=O)[C@H](CCC(N)=O)NC(=O)[C@H](CCSC)NC(=O)[C@H](CC(=O)O)NC(=O)[C@H](C)NC(=O)[C@H](C)NC(=O)[C@@H](NC(=O)[C@H](CO)NC(=O)[C@@H](N)CC(C)C)[C@@H](C)O)C(C)C)C(C)C)[C@@H](C)O)C(=O)N[C@@H](C)C(=O)N[C@@H](CO)C(=O)NCC(=O)N[C@@H](CC(C)C)C(=O)N[C@@H](CC(=O)O)C(=O)N[C@@H](CCCCN)C(=O)N[C@@H](CC(=O)O)C(=O)N[C@@H](Cc1ccc(O)cc1)C(=O)N[C@@H](CC(C)C)C(=O)N[C@@H](CCCCN)C(=O)N1CCC[C@H]1C(=O)N[C@@H](CC(=O)O)C(=O)N[C@@H](CC(=O)O)C(=O)O", "system": "human, serum", "conditions": "intravenous, 1.66 mg/kg, patients, infusion", "measurement": "AUC(0-t)", "result": "1320 ng·h/mL"}
{"Structure (SMILES)": "CCCCCCCCC1(CCCCCCCC)c2cc(-c3cc4[n+]5c(c3)-c3cccc[n+]3[Ir-3]536([c]5c(c(C)cc(C)c5-c5cccc[n+]53)-c3cccc[n+]36)[n+]3ccccc3-4)ccc2-c2ccc(-c3cc4[n+]5c(c3)-c3cccc[n+]3[Ir-3]536([c]5c(c(C)cc(C)c5-c5cccc[n+]53)-c3cccc[n+]36)[n+]3ccccc3-4)cc21.F[P-](F)(F)(F)(F)F.F[P-](F)(F)(F)(F)F.F[P-](F)(F)(F)(F)F.F[P-](F)(F)(F)(F)F", "system": "acetonitrile", "conditions": "5 µM", "scale": "relative to: [Ru(bpy)3](PF6)2", "measurement": "singlet oxygen quantum yield", "result": 0.04}
{"Structure (SMILES)": "CC(C)C[C@@H]1NC(=O)[C@H](CCCNC(=N)N)NC(=O)[C@H](CCCCN)NC(=O)[C@H](CC(=O)O)NC(=O)[C@H](CCCCN)NC(=O)[C@@H](CO)NC1=O", "system": "C57BL/6J mice", "conditions": "ip, up to 10 µg/g, four weeks, single and repeated doses", "measurement": "acute and chronic toxicity", "result": "not toxic"}
{"Structure (SMILES)": "CCNc1cc2[o+]c3cc(NCC)c(C)cc3c(-c3ccccc3C(=O)OCCOCC[18F])c2cc1C", "system": "rat, muscle", "conditions": "30 min", "measurement": "tissue uptake", "result": "0.12 ± 0.01 %ID/g"}
{"Structure (SMILES)": "O=C([O-])C[N+]12CC(=O)[O][Re-2]1[O]P(=O)([O-])C2.[C-]#[O+].[C-]#[O+].[C-]#[O+] (stereo not drawn)", "test": "HPLC", "system": "aqueous solution", "conditions": "1 d, pH 8, room temperature", "measurement": "isomer fraction at equilibrium", "result": "62%"}
{"Structure (SMILES)": "CN(C)c1ccc(C(=O)NCCCCN2CCN(c3ccccc3O[11CH3])CC2)cc1", "system": "male Sprague Dawley rat, brain", "conditions": "intravenous, 30 min", "measurement": "brain uptake", "result": "0.107 ± 0.001 %ID/g"}
{"Structure (SMILES)": "CC(=CCC(O)C(C)=Cc1csc(C)n1)CC=CC(C)C(O)C(C)C(=O)C(C)(C)C(O)CC(=O)O (stereo not drawn)", "system": "human, plasma", "conditions": "intravenous infusion, 20.0 mg/m2 KOS-1584, 3 h infusion, cycle 1", "scale": "relative to: metabolite over KOS-1584", "measurement": "AUC ratio", "result": "9.65 ± 3.97%"}
{"Structure (SMILES)": "CCCCCCCC/C=C\\CCCCCCCCOP(O)(O)=S.N", "system": "mouse, female, nonirradiated", "conditions": "subcutaneous, single dose", "measurement": "CL/F", "result": "14.5 mL/min/kg"}
{"Structure (SMILES)": "CCc1c2c(nc3ccc(OC4OC(C(=O)O)C(O)C(O)C4O)cc13)-c1cc3c(c(=O)n1C2)COC(=O)C3(O)CC (stereo not drawn)", "system": "human patients, plasma", "conditions": "intravenous, 3 mg/m^2 of parent drug", "measurement": "AUC(0-inf)", "result": "39 ng·h/mL"}
{"Structure (SMILES)": "COc1ccc(NC(=O)Cn2c(=O)c3ccccc3n(CC(=O)Nc3cc([125I])c(OC)cc3OC)c2=O)cc1", "system": "rat, muscle", "conditions": "intravenous, 30 min", "measurement": "tracer uptake", "result": "0.08 %ID/g"}
{"Structure (SMILES)": "C=C(C)C12OC3(c4ccccc4)OC1C1C4OC4(CO)C(O)C4(O)C(=O)C(C)=CC4C1(O3)C(C)C2OC(=O)c1ccccc1 (stereo not drawn)", "system": "ICR mice, plasma", "conditions": "oral, 1 mg/kg", "measurement": "oral bioavailability", "result": "2.21%"}
{"Structure (SMILES)": "COc1ccc(C)cc1NC(=O)OC1CC2CCCC(C1)N2Cc1ccc(CC[18F])cc1 (stereo not drawn)", "system": "mouse, bone", "conditions": "30 min, tumour-bearing", "measurement": "tracer uptake", "result": "4.76 %ID/g"}
